Experimental data gathered from unrelated publications.
Every numbered part comes from another study and shows a few of its results, in no order. Positions count from the first letter of the parent shown.

Series 1
Target: TAR DNA-binding protein 43, full length, His tag (TARDBP, Homo sapiens, UniProt Q13148, residues 1-414)
Method: RNA Bind-n-Seq
Molecule type: RNA
Medium: in vitro
Tested at: 20 nM
Notes: 6-mer, flanks averaged, single round
Added: 150 mM KCl
Relative to: input library
Direction: higher = stronger binding
Sequence	6-mer enrichment (R)
GAUGUC	0.775
GGCAUG	1.77
AAAGGA	0.828
CAAUAC	0.621
GUCCGC	0.838
CUCAAC	0.576
AGGAGA	1.56
CGUCUC	0.606

Series 2
Target: Prothrombin, mature alpha-thrombin (F2, Homo sapiens, UniProt P00734)
Method: aptamer microarray, sandwich
Molecule type: DNA with 2'F-ANA
Medium: in vitro
Tested at: 200 nM
Notes: whole 15-mer aptamer, many near background
Added: Cy3 exosite-II aptamer, 400 nM
Direction: higher = stronger binding
Sequence: GGTTGGTGTGGTTGG
Modification	mean fluorescence intensity
2'F-ANA at 1 5 6 7 8 9 10 13 14 15	66.7 a.u.
2'F-ANA at 4 5 7 8 9 11 12 14	119 a.u.
2'F-ANA at 2 4 5 6 7 11 13	214 a.u.
2'F-ANA at 1 2 4 6 8 9 10 13	48.2 a.u.
2'F-ANA at 1 3 4 5 7 8 9 11 12 14 15	107 a.u.
2'F-ANA at 6 9 13 14	153 a.u.
2'F-ANA at 1 2 5 6 10 11 12 14	60.8 a.u.
2'F-ANA at 1 2 4 6 9 12 13 15	157 a.u.

Series 3
Target: CCNB1, cyclin fold, Cln2 fusion (human)
Method: yeast growth competition, sequencing
Medium: yeast
Notes: strong parent motif
Relative to: not given
Direction: higher = stronger binding
Parent: viral docking peptide; YKVKRRLVFGADD; partner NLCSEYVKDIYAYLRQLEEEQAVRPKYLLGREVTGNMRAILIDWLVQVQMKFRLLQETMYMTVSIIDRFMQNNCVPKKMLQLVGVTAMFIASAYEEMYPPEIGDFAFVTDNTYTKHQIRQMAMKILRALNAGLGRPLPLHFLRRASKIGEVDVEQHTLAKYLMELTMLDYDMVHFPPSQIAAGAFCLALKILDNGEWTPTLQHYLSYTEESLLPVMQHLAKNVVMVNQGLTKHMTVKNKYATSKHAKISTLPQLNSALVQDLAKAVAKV
Substitution	normalised enrichment score
D12L	1.74
G10V	3.04
A11Q	3.36
K2I	3.62
K4V	4.73
L7P	0.252
K4W	0.879
D12G	2.71
L7F	0.534
D12N	2.8
K4N	4.27
D12W	1.65
A11W	3.15
L7E	0.538
D12K	1.13
V8E	4.62

Series 4
Target: Probable WRKY transcription factor 11, DNA-binding domain (WRKY11, Arabidopsis thaliana, UniProt Q9SV15, residues 228-325)
Method: DNA-protein interaction ELISA
Molecule type: double-stranded DNA, one strand shown
Medium: in vitro, bacterial lysate
Tested at: not given
Notes: whole dsDNA probe, crude lysate protein
Relative to: highest signal in screen
Direction: higher = stronger binding
Construct (chain): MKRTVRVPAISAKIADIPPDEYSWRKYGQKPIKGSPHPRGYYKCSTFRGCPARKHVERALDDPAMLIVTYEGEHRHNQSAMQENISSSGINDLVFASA
Sequence	relative absorbance
AAAAAATAGGCGTTATGGCTAACACCAAAA	17.6 % of maximum
AAAAAATGCAGACCTTCAGCTGGGTAAAAA	16.4 % of maximum
AAAAAAACCCGTGCCTGCCTATTGCAAAAA	10.4 % of maximum
AAAAAAACTCACGGCGTCACTATGGTAAAA	14.4 % of maximum
AAAAAACCGAGTGTTGCCAGTTGCAGAAAA	17 % of maximum
AAAAAAACTTTCTATTCTGGATAAGTAAAA	15.3 % of maximum
AAAAAACGCTCCGTTTTTGCAATGCGAAAA	16.1 % of maximum
AAAAAAAGGTCATTGCTGCTGGTGTTAAAA	19 % of maximum
